Measured values collected from several papers.
Parts stem from different laboratories: compare values within a part only. Positions count from the first letter of the parent shown.

Sample 1 — technique: RNA Bind-n-Seq; form: RNA; medium: in vitro; tested at: 365 nM; reference: no-protein control; reading: higher = stronger binding
Target: RNA binding protein fox-1 homolog 2, RRM domain, GST-SBP tag (RBFOX2, Homo sapiens, UniProt O43251-10, residues 100-194)
Notes: natural RNA segment, single round, ends assumed
Target sequence (chain): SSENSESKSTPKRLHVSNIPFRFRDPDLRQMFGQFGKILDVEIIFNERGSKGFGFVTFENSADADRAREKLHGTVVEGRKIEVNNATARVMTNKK
`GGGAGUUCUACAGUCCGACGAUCUGCCUCAGAAGCUGGCUGGGGACUCUAGCCUCUGUGUUCAUAAAGACAUUAAGAAGUGGAUGGAUGUUGUUCCUUUUUUGAAGUUGUCAUUAAAGUAGGUGCAACAACCAUGGAAUUCUCGGGUGCCAA`: “RBNS enrichment (R)” 0.263.
Under “RBNS enrichment (R)”, `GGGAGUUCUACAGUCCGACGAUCUUUUACAUGUGAAUGAUUUUCUCAAAGAACAUAGAAAAGUCAAUAAAAUCCUCUUAAUUUCCACAUAUCACGUUUGGAUUUUCUUUUUUAAUUUGUUCUGAGAUUGACAAUGGAAUUCUCGGGUGCCAA` is recorded as 0.443.
For `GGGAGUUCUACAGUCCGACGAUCGGAAGGAUCAUCAACCAUCUAAUCAAAAUGGAUCUGGAUUAUUACUCUGUAAAAUUCACAGCAGUAAAUAUUGUUUUGUUGAAUGUAUUAACAUCUUAUGGUCUGAAAAUUGGAAUUCUCGGGUGCCAA`, “RBNS enrichment (R)” read 0.362.
`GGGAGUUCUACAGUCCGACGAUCCAGCACAGGCGCUGGCAGUGGAUACAGCAGGCCUGUCUAGUCUCCCACAGUGGGUUUGGCUGAUUGUAGCCCUGGGCUGUUUUGCCAUGGAACUCUCCAGUGUUCCUAUAUGGAAUUCUCGGGUGCCAA` — result for “RBNS enrichment (R)”: 0.89.
For `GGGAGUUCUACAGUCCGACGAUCUAGAGACAGGAACAUUGACUUGAACAUAUGUAUGUAAGAGUCCAGGCUCAUUCUGAGUUGAUGAAAAGUCUUGUUUGGACUUCUGCAGGGUUUGACUCCCUGGACACUCUUGGAAUUCUCGGGUGCCAA`, “RBNS enrichment (R)” read 0.301.
`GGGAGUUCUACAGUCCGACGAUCAGCCAGGAAGGAGACUGCACAGUUUUGAAAGCACAGCCCGUCAGGUCCGGCUCUGCGUCUCCCUCUCUGCAGCCUGUGUAAGCUAUUAUAAUUAAAAUGGUUUUCCGGGAUGGAAUUCUCGGGUGCCAA`: “RBNS enrichment (R)” 0.683.
Under “RBNS enrichment (R)”, `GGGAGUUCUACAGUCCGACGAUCCCGUCUUCCCUCGGCUCUUGUUGGUGUGUGCAUGUGCUGCGUGCACACCGGGUUGUAUGGCGUCAGCAGGUGUGAGCUGUCCCUUGCUUCUCUUGUCACACAGUGCCCCUUGGAAUUCUCGGGUGCCAA` is recorded as 0.4.
`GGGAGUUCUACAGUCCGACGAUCUUUUAUUCCCUUUCCUCUCUCCCCUCCCCACCUCGCUUCUUCCCAAUUUAGUAACUUAGAUGCUUCCAGCACAUACGUAGGUAGCUACCCCAGCCGGUUUGGAUUACAGGUGGAAUUCUCGGGUGCCAA` — result for “RBNS enrichment (R)”: 0.762.
Under “RBNS enrichment (R)”, `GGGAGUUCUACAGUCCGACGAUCAGCUAGACAAAAGAUCUGUGCCCUGUGUUUCAUCCCAGAGCUUGUUGCCAGAUCACAUGGCUGGAUGUGAUGUGGGGUGGGGGUGGGGUCAUAUCUGAGACAGCCCUCAGUGGAAUUCUCGGGUGCCAA` is recorded as 4.25.

Sample 2 — target: UBE2B UBC core domain (UniProt P63146); technique: yeast two-hybrid; medium: yeast; notes: mostly zero background; reference: not given; reading: higher = stronger interaction
Sequence of UniProt P63146 (whole entry, looked up): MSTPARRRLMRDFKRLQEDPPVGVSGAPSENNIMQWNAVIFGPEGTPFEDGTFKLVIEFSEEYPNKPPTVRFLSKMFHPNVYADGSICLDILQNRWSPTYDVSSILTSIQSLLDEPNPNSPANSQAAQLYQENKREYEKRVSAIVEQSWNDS
B1: NFX1 RING domain (UniProt Q12986); chain IEQLTTEKYECMVCCELVRVTAPVWSCQSCYHVFHLNCIKKWARSPASQADGQSGWRCPACQNVSAHVPNTY
B2: CNOT4 RING domain (UniProt O95628); chain MSRSPDAKEDPVECPLCMEPLEIDDINFFPCTCGYQICRFCWHRIRTDENGLCPACRKPYPED
B3: ZNRF4 RING domain (UniProt Q8WWF5); chain VRTFTWHNDLCAICLDEYEEGDQLKILPCSHTYHCKCIDPWFSQAPRRSCPVCKQSVAATEDSF
B4: RNF103 RING domain (UniProt O00237); chain WPADMLHCTECVVCLENFENGCLLMGLPCGHVFHQNCIVMWLAGGRHCCPVCRWPSYKKKQPY
B5: TRIM11 RING domain (UniProt Q96F44); chain LSTNLQEEATCAICLDYFTDPVMTDCGHNFCRECIRRCWGQPEGPYACPECRELSPQRNLRP
B6: RNF6 RING domain (UniProt Q9Y252); chain NSIDSELGKICSVCISDYVTGNKLRQLPCMHEFHIHCIDRWLSENCTCPICRQPVLGSNIAN
B7: RNF182 RING domain (UniProt Q8N6D2); chain AESQASDELECKICYNRYNLKQRKPKVLECCHRVCAKCLYKIIDFGDSPQGVIVCPFCRFETCLPDDEV
B8: RUFY1 RING domain (UniProt Q96T51); chain QALKGHAWLKDDEATHCRQCEKEFSISRRKHHCRNCGHIFCNTCSSNELALPSYPKPVRVCDSCHTLLLQRCSSTAS
B9: MID2 RING domain (UniProt Q9UJV3); chain KMETLESELTCPICLELFEDPLLLPCAHSLCFSCAHRILVSSCSSGESIEPITAFQCPTCRYVISLNHRGL
B10: MKRN3 RING domain (UniProt Q13064); chain FAVQRGMDKVCGICMEVVYEKANPNDRRFGILSNCNHSFCIRCIRRWRSARQFENRIVKSCPQCRVTSELVIPSE
B11: HLTF RING domain (UniProt Q14527); chain LILSSGSDEECAICLDSLTVPVITHCAHVFCKPCICQVIQNEQPHAKCPLCRNDIHEDNLLE
`B1 (NFX1 RING domain)`: “lacZ reporter activity” 0.
Under “lacZ reporter activity”, `B2 (CNOT4 RING domain)` is recorded as 0.
`LVKDFNPYITCYICKGYLIKPTTVTECLHTFCKTCIVQHFEDSNDCPRCGNQVHETNPLE (PCGF5 RING domain (UniProt Q86SE9))` — result for “lacZ reporter activity”: 0.
Under “lacZ reporter activity”, `B3 (ZNRF4 RING domain)` is recorded as 0.
Under “lacZ reporter activity”, `B4 (RNF103 RING domain)` is recorded as 0.
`B5 (TRIM11 RING domain)` — result for “lacZ reporter activity”: 0.
`B6 (RNF6 RING domain)`: “lacZ reporter activity” 0.
`B7 (RNF182 RING domain)` — result for “lacZ reporter activity”: 0.
`FAEQPSVKLCCQLCCSVFKDPVITTCGHTFCRRCALKSEKCPVDNVKLTVVVNNI (TRAF7 RING domain (UniProt Q6Q0C0))`: “lacZ reporter activity” 0.
`B8 (RUFY1 RING domain)`: “lacZ reporter activity” 0.
`B9 (MID2 RING domain)` — result for “lacZ reporter activity”: 0.
For `DDVLTKDAGECVICLEELLQGDTIARLPCLCIYHKSCIDSWFEVNRSCPEHPAD (ZNRF1 RING domain (UniProt Q8ND25))`, “lacZ reporter activity” read 0.
`B10 (MKRN3 RING domain)`: “lacZ reporter activity” 0.
For `LEALSSDFLACKICLEQLRAPKTLPCLHTYCQDCLAQLADGGRVRCPECRETVPVPPEGV (TRIM56 RING domain (UniProt Q9BRZ2))`, “lacZ reporter activity” read 0.
`B11 (HLTF RING domain)`: “lacZ reporter activity” 0.

Sample 3 — technique: DHFR PCA, deep sequencing; medium: yeast; added: (+)-ABA 0 µM; reference: wild-type fitted maximum; reading: higher = stronger binding
Target: ABI1, truncated, D143A, DHFR fusion (Arabidopsis thaliana)
Notes: methotrexate growth selection, single substitutions
Starting sequence: PYL1, truncated, DHFR fusion (Arabidopsis thaliana); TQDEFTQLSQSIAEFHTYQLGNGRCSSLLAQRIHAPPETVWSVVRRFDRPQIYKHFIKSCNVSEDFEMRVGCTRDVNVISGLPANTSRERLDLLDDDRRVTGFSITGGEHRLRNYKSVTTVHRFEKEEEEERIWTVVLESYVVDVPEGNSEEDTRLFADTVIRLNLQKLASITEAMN; partner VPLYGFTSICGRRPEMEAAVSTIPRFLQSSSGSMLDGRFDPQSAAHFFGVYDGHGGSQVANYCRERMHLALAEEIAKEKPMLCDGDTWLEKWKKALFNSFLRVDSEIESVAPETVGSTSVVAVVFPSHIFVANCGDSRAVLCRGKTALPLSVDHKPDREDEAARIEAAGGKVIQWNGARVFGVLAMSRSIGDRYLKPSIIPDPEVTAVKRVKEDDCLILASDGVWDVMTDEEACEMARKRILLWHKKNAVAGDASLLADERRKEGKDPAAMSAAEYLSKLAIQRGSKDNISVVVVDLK
`R69E`: “relative binding score” 19.6%.
`A30P`: “relative binding score” 1.37%.
Under “relative binding score”, `R132M` is recorded as 22.5%.
Under “relative binding score”, `H16W` is recorded as 0.385%.
Under “relative binding score”, `T39L` is recorded as 49.1%.
`S80Y` — result for “relative binding score”: 61.5%.
Under “relative binding score”, `D65Q` is recorded as 10.8%.
Under “relative binding score”, `I79Y` is recorded as 23.7%.
`A175Q`: “relative binding score” 29%.
`R99V` — result for “relative binding score”: -2.23%.
Under “relative binding score”, `R98W` is recorded as 9.12%.
`V121A` — result for “relative binding score”: 5.38%.
`T154A`: “relative binding score” 1.57%.
Under “relative binding score”, `V44S` is recorded as 0.468%.
For `V70P`, “relative binding score” read 30.4%.
`I12E`: “relative binding score” 1.6%.
Under “relative binding score”, `N165T` is recorded as 9.11%.
`D96G` — result for “relative binding score”: 2.61%.
Under “relative binding score”, `V136R` is recorded as -7.3%.

Sample 4 — target: CCND1, cyclin fold, Cln2 fusion (human); technique: yeast growth competition, sequencing; medium: yeast; notes: weak parent motif; reference: not given; reading: higher = stronger binding
Starting sequence: MICAL3 docking peptide (human); LQLRRQLSFSEDS
`LQLRRQLSFSEVS [D12V]`: “normalised enrichment score” 0.788.
`LQLRRQLSASEDS [F9A]` — result for “normalised enrichment score”: 0.122.
For `LQVRRQLSFSEDS [L3V]`, “normalised enrichment score” read 1.53.
For `LQLRRQLSFSEYS [D12Y]`, “normalised enrichment score” read 0.368.
Under “normalised enrichment score”, `LQLRRKLSFSEDS [Q6K]` is recorded as 1.96.
Under “normalised enrichment score”, `LQLRRQLSFSEQS [D12Q]` is recorded as 0.314.
For `LQARRQLSFSEDS [L3A]`, “normalised enrichment score” read 3.04.
`LQLRRQLYFSEDS [S8Y]` — result for “normalised enrichment score”: -0.0578.
Under “normalised enrichment score”, `LQIRRQLSFSEDS [L3I]` is recorded as 1.21.
`LQMRRQLSFSEDS [L3M]` — result for “normalised enrichment score”: 0.129.
`LILRRQLSFSEDS [Q2I]`: “normalised enrichment score” 0.0619.
For `LTLRRQLSFSEDS [Q2T]`, “normalised enrichment score” read 0.479.
`LQLRRQLSFSWDS [E11W]` — result for “normalised enrichment score”: 0.113.
For `LQERRQLSFSEDS [L3E]`, “normalised enrichment score” read -0.206.
Under “normalised enrichment score”, `LQLRWQLSFSEDS [R5W]` is recorded as 0.00427.
For `LQLRRQLSPSEDS [F9P]`, “normalised enrichment score” read 0.189.
`LQLRRNLSFSEDS [Q6N]` — result for “normalised enrichment score”: 0.101.
For `LQLRRQLSFSEKS [D12K]`, “normalised enrichment score” read 0.0344.
`LHLRRQLSFSEDS [Q2H]`: “normalised enrichment score” 0.471.
For `LALRRQLSFSEDS [Q2A]`, “normalised enrichment score” read 0.233.
Under “normalised enrichment score”, `LQLRRQKSFSEDS [L7K]` is recorded as -0.129.
`LQLRRQLSMSEDS [F9M]` — result for “normalised enrichment score”: -0.0383.

Some of these lines once more (sample 4):
`LQLRRQLSFSEVS [D12V]`: “normalised enrichment score” 0.788.
For `LQARRQLSFSEDS [L3A]`, “normalised enrichment score” read 3.04.
For `LALRRQLSFSEDS [Q2A]`, “normalised enrichment score” read 0.233.
`LQLRRQLSFSWDS [E11W]` — result for “normalised enrichment score”: 0.113.
For `LTLRRQLSFSEDS [Q2T]`, “normalised enrichment score” read 0.479.
Under “normalised enrichment score”, `LQIRRQLSFSEDS [L3I]` is recorded as 1.21.
For `LQVRRQLSFSEDS [L3V]`, “normalised enrichment score” read 1.53.
